# Measured values of several laboratories.
# Numbered parts are unrelated; each lists some results of a single study. “And” joins repeats or separate records; there may be more than shown.

# Study 1
# Target: Eukaryotic initiation factor 4A-I (EIF4A1, Homo sapiens, UniProt P60842)
# Chain of UniProt P60842 (whole entry, looked up): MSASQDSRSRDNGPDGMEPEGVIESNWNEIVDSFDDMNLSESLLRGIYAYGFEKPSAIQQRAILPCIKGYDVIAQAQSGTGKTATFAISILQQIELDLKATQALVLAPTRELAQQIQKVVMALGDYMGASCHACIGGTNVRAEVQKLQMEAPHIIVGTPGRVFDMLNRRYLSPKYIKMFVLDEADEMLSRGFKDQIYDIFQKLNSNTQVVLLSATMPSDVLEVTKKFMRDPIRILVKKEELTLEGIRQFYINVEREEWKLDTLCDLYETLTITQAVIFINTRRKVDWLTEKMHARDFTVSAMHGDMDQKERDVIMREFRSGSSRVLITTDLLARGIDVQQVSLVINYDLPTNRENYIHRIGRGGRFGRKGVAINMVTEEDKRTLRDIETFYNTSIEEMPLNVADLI
# Read-out: RNA clamping
# Technique: fluorescence polarization
# Tested at: concentration not given
# Setting: mean of two replicates
# Together with: FAM-labelled poly r(AG)8 RNA
SMILES,fluorescence polarization change
COc1cc(OC)c2c(c1)O[C@@]1(c3ccc(Br)cc3)[C@H](c3ccccc3)C3=C(N[C@@H]4CCCN4C3=O)[C@@]21O,47.3 mP
COc1ccc([C@@]23Oc4cc(OC)cc(OC)c4[C@]2(O)C2=C(C(=O)N4CCC[C@@]4(C)N2)[C@H]3c2ccccc2)cc1,-0.7 mP
COc1ccc([C@]23Oc4cc(OC)cc(OC)c4[C@](O)(C2O)[C@H](c2c(F)c(F)c(F)c(F)c2F)[C@H]3c2ccccc2)cc1 (some centres unmarked),5.5 mP
COC(=O)[C@@H]1[C@@H](c2ccccc2)[C@]2(c3ccc(OC)cc3)Oc3cc(OC)cc(OC)c3[C@@]23OC(c2ccc(C(F)(F)F)cc2)=N[C@@]13O,0.8 mP
COc1cc(F)cc2c1[C@]1(O)[C@H](O)[C@H](C#N)[C@@H](c3ccccc3)[C@]1(c1ccc(Br)cc1)O2,37.3 mP
COC(=O)[C@@H]1[C@@H](c2ccccc2)[C@]2(c3ccc(OC)cc3)Oc3cc(OC)cc(OC)c3[C@@]23N=C2CCCCN2[C@@]13O,52.7 mP
COc1ccc([C@@]23Oc4cc(OC)cc(OC)c4[C@]2(O)c2nc(-c4cccc(OCc5ccccc5)c4)[nH]c(=O)c2[C@H]3c2ccccc2)cc1,11.1 mP
COC(=O)[C@@H]1[C@@H](c2ccccc2)[C@]2(c3ccc(OC)cc3)Oc3cc(OC)cc(OC)c3[C@@]23NC(c2ccc(N(C)C)cc2)=N[C@@]13O,44.6 mP
COc1ccc([C@@]23Oc4cc(OC)cc(OC)c4[C@]2(O)[C@H](O)[C@H](C(=O)c2ccco2)[C@H]3c2ccc(O)cc2)cc1,25.7 mP
COC(=O)[C@H]1[C@@H](O)[C@@]2(O)c3c(OC)cc(OS(=O)(=O)c4ccc(C)cc4)cc3O[C@@]2(c2ccc(Br)cc2)[C@@H]1c1ccccc1,40.9 mP and 16.1 mP
COC(=O)[C@@H]1[C@@H](c2ccccc2)[C@]2(c3ccc(OC)cc3)Oc3cc(OC)cc(OC)c3[C@@]23NC(C2CCCCC2)=N[C@@]13O,58.1 mP
COc1ccc([C@@]23Oc4cc(OC)cc(OC)c4[C@]2(O)C2=NNC(=O)C2=C3c2ccccc2)cc1,10.1 mP

# Study 2
# Target: Calcium/calmodulin-dependent protein kinase type II subunit alpha (CAMK2A, Homo sapiens, UniProt Q9UQM7)
# Chain of UniProt Q9UQM7 (whole entry, looked up): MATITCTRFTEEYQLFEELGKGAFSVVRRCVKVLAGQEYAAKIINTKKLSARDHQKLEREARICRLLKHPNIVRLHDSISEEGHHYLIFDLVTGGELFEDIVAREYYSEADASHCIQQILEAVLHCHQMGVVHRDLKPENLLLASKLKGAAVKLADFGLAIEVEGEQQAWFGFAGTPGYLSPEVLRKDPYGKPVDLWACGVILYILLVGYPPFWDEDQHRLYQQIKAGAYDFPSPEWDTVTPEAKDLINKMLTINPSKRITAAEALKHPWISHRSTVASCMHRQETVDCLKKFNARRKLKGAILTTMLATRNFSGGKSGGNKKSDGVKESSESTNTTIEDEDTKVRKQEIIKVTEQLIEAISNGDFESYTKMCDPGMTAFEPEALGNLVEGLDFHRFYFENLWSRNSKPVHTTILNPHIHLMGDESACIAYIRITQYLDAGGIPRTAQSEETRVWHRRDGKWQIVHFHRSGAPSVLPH
# Read-out: enzyme activity
# Action: inhibitor
# Tested at: 10 µM
SMILES,inhibition [%]
C[C@@H]1CC[C@@]2(OC1)O[C@H]1C[C@H]3[C@@H]4CC=C5C[C@@H](O[C@@H]6O[C@H](CO)[C@@H](O[C@@H]7O[C@@H](CO)[C@H](O)[C@H]7O)[C@H](O)[C@H]6O[C@@H]6O[C@@H](C)[C@H](O)[C@@H](O)[C@H]6O)CC[C@]5(C)[C@H]4CC[C@]3(C)[C@H]1[C@@H]2C,-8
CC(C)=CCC12Oc3cc(O)ccc3C1(O)Oc1cc(O)c([C@H]3C=C(C)C[C@@H](c4ccc(O)cc4O)[C@@H]3C(=O)c3ccc(O)cc3O)c(O)c1C2=O (some centres unmarked),-46
O[C@@H]1CCCC[C@H]1O (relative stereo),-12
COc1ccc(C(=O)c2ccccc2)c(O)c1,4
C/C=C(/C)C(=O)O,-38
C=C1C[C@@]23CC[C@H]4[C@@](C)(CCC[C@@]4(C)C(=O)O)[C@@H]2CC[C@]1(O)C3,11
COc1ccc(C2CC(=O)c3c(O)cc(O)cc3O2)cc1O (racemic),-22
C/C=C1/[C@H](O[C@@H]2O[C@H](CO)[C@@H](O)[C@H](O)[C@H]2O)OC=C(C(=O)OC)[C@H]1CC(=O)OC[C@H]1O[C@@H](OCCc2ccc(OC(=O)C[C@@H]3C(C(=O)OC)=CO[C@@H](O[C@@H]4O[C@H](CO)[C@@H](O)[C@H](O)[C@H]4O)/C3=C/C)cc2)[C@H](O)[C@@H](O)[C@@H]1O,-39
CC(=O)O[C@H]1CC[C@]2(C)[C@H]3CC=C4[C@@H]5CC(C)(C)CC[C@]5(C(=O)O)CC[C@@]4(C)[C@]3(C)CC[C@H]2C1(C)C,-23
CC(C)n1c(=O)cc(N[C@@H](C)c2ccccc2)[nH]c1=O,-5
CC1(C)CC[C@]2(C(=O)O[C@@H]3O[C@H](CO)[C@@H](O)[C@H](O)[C@H]3O)CC[C@]3(C)C(=CC[C@@H]4[C@@]5(C)CC[C@H](O[C@@H]6O[C@H](C(=O)O)[C@@H](O[C@@H]7O[C@@H](CO)[C@H](O)[C@H]7O)[C@H](O)[C@H]6O)C(C)(C)[C@@H]5CC[C@]43C)[C@@H]2C1,7
O=C(O)[C@H]1O[C@@H](Oc2cc3oc(-c4ccccc4)cc(=O)c3c(O)c2O)[C@H](O)[C@@H](O)[C@@H]1O,-15
C=C1CC[C@@H]2[C@](C)(CO[C@@H]3O[C@H](CO)[C@@H](O)[C@H](O)[C@H]3O)CCC[C@@]2(C)[C@@H]1CCC1=CCOC1=O,-1
CN(C)CCN(Cc1ccc(Cl)cc1)c1ccccn1,-7
O=C(O)c1ccccn1,18
COc1ccc(-c2coc3cc(O)cc(O)c3c2=O)cc1,-26

# Study 3
# Organism: Sarcocystis neurona
# Read-out: parasite activity
# Tested at: 10 µM
# Time: 96 h
SMILES,activity class
Cc1[nH]cnc1CN1CCc2c(c3ccccc3n2C)C1=O,inactive
COc1ccc(C2CNC(=O)C2)cc1OC1CCCC1 (centres unmarked),inactive
CC[C@H](C)C(=O)O[C@H]1C[C@@H](C)C=C2C=C[C@H](C)[C@H](CC[C@@H]3C[C@@H](O)CC(=O)O3)[C@H]21,inactive
CC(C)C[C@H](NC(=O)[C@@H](O)[C@H](N)Cc1ccccc1)C(=O)O,inactive
CCc1nn(CCCN2CCN(c3cccc(Cl)c3)CC2)c(=O)n1CCOc1ccccc1,inactive
Cc1cccc(Nc2ccccc2C(=O)O)c1C,inactive
CC1COc2c(N3CCN(C)CC3)c(F)cc3c(=O)c(C(=O)O)cn1c23 (centres unmarked),inactive
COc1ccc(Cl)cc1C(=O)NCCc1ccc(S(=O)(=O)NC(=O)NC2CCCCC2)cc1,inactive
CC(C)OC(=O)CCC/C=C\C[C@@H]1[C@@H](CC[C@@H](O)CCc2ccccc2)[C@H](O)C[C@@H]1O,inactive
CCOC(=O)c1ncn2c1CN(C)C(=O)c1cc(F)ccc1-2,inactive
CNNCc1ccc(C(=O)NC(C)C)cc1,inactive

# Study 4
# Target: 5-hydroxytryptamine receptor 1D (HTR1D, Homo sapiens, UniProt P28221)
# Chain of UniProt P28221 (whole entry, looked up): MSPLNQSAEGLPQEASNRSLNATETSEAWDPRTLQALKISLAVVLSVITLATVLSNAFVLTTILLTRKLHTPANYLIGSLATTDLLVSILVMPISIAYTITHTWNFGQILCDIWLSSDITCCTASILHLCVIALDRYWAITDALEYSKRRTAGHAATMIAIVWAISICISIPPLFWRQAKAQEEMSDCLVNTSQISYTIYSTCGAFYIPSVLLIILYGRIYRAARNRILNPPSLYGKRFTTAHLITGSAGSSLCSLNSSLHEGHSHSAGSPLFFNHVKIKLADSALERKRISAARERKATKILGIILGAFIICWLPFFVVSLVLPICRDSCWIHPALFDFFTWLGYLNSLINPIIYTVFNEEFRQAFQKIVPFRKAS
# Read-out: ligand displacement
# Technique: radioligand
# Tested at: 10 µM
Compound,inhibition [%]
Cc1cc(NC(=O)c2cccc(S(F)(F)(F)(F)F)c2)cc(-n2ccn3nc(-c4cccnc4)cc23)c1,-7.56
Cc1c[nH]c2nccc(Oc3c(F)cc(Nc4cc(Cl)nc(N)n4)cc3F)c12,45
Cc1ccc(-c2cnc([C@@]3(O)CC[C@H](C(=O)O)C(C)(C)C3)s2)cc1Nc1cccc(C(F)(F)F)n1,16.5
O=C(c1ccc(F)cc1)N1CC(COc2ccc(Br)cc2)(C(=O)O)C1,-24.9
Cc1nc(N2CC[C@@H](O)C2)ncc1-c1cc(C(F)(F)F)cc2[nH]ncc12,-8.55
NS(=O)(=O)c1cc(NC(=O)C2(c3ccccc3Cl)CC2)ccc1Oc1cccc(Cl)c1,6.75
C[C@H](NC(=O)Nc1cc2[nH]ncc2c(CO)n1)c1ccccn1,39.9
CC(C)CC(=O)N1CCc2nc(-c3ccc(Br)cc3)nc(N(C)Cc3ccccc3)c2C1,22.6
CCc1ccccc1C(=O)Nc1n[nH]c2c(C)c(F)c(C3C(C#N)=C(C)N(C)C(C)=C3C#N)cc12,4.65
CN(C)CC#Cc1ccc(OCCCc2sc(N3CCc4cccc(C(=O)Nc5nc6ccccc6s5)c4C3)nc2C(=O)O)c(F)c1,34.5
CNCc1ccccc1-c1csc([C@@H](C)Nc2nc(C)nc3cc(OC)c(OC)cc23)c1,98.1
Cc1cnc(-c2cc(Cl)ccc2F)cc1-n1c(=O)n(CC(N)=O)c2cnccc21,5.53
O=C(Nc1cccnn1)N1CC(CC=Cc2cncc(Oc3ccc(C(F)(F)F)cn3)n2)C1,-2.98
CCS(=O)(=O)c1cc2cc(C[C@](O)(CC(C)(C)c3ccc(F)cc3C(N)=O)C(F)(F)F)[nH]c2cn1,5.54
CN([C@@H]1CCc2c(CC(=O)O)c3ccccc3n2C1)S(=O)(=O)c1ccc(F)cc1,-6.39
O=C(NS(=O)(=O)c1ccc(NCC2CCOCC2)c([N+](=O)[O-])c1)c1ccc(N2CCN(Cc3ccc(C(F)(F)F)cc3-c3ccc(Cl)cc3)CC2)cc1Oc1cnc2[nH]ccc2c1,-6.27
COc1cccc(CNC(=O)c2nc3scc(COCc4ccc(C(=O)O)cc4)c3c(=O)[nH]2)c1,-1.39
CN([C@@H]1CCc2c(CC(=O)O)c3cc(S(C)(=O)=O)ccc3n2C1)S(=O)(=O)c1ccc(F)cc1,0.54
O=C(Nc1cccnn1)N1CCC(=Cc2cccc(Oc3ccc(C(F)(F)F)cn3)c2)CC1,42.1
CN(C)C(=O)Cn1cc(-c2nc(C3(c4ccc(-c5cnc(N)nc5)cc4)CC3)no2)cn1,-3.06

# Excerpt of the above (study 1):
SMILES,fluorescence polarization change
COC(=O)[C@@H]1[C@@H](c2ccccc2)[C@]2(c3ccc(OC)cc3)Oc3cc(OC)cc(OC)c3[C@@]23OC(c2ccc(C(F)(F)F)cc2)=N[C@@]13O,0.8 mP
COc1ccc([C@@]23Oc4cc(OC)cc(OC)c4[C@]2(O)[C@H](O)[C@H](C(=O)c2ccco2)[C@H]3c2ccc(O)cc2)cc1,25.7 mP
COC(=O)[C@@H]1[C@@H](c2ccccc2)[C@]2(c3ccc(OC)cc3)Oc3cc(OC)cc(OC)c3[C@@]23NC(C2CCCCC2)=N[C@@]13O,58.1 mP
COc1ccc([C@@]23Oc4cc(OC)cc(OC)c4[C@]2(O)c2nc(-c4cccc(OCc5ccccc5)c4)[nH]c(=O)c2[C@H]3c2ccccc2)cc1,11.1 mP
COc1cc(OC)c2c(c1)O[C@@]1(c3ccc(Br)cc3)[C@H](c3ccccc3)C3=C(N[C@@H]4CCCN4C3=O)[C@@]21O,47.3 mP
COC(=O)[C@@H]1[C@@H](c2ccccc2)[C@]2(c3ccc(OC)cc3)Oc3cc(OC)cc(OC)c3[C@@]23N=C2CCCCN2[C@@]13O,52.7 mP
COc1ccc([C@@]23Oc4cc(OC)cc(OC)c4[C@]2(O)C2=C(C(=O)N4CCC[C@@]4(C)N2)[C@H]3c2ccccc2)cc1,-0.7 mP
COc1ccc([C@]23Oc4cc(OC)cc(OC)c4[C@](O)(C2O)[C@H](c2c(F)c(F)c(F)c(F)c2F)[C@H]3c2ccccc2)cc1 (some centres unmarked),5.5 mP
COc1ccc([C@@]23Oc4cc(OC)cc(OC)c4[C@]2(O)C2=NNC(=O)C2=C3c2ccccc2)cc1,10.1 mP
COC(=O)[C@H]1[C@@H](O)[C@@]2(O)c3c(OC)cc(OS(=O)(=O)c4ccc(C)cc4)cc3O[C@@]2(c2ccc(Br)cc2)[C@@H]1c1ccccc1,40.9 mP and 16.1 mP
